Measured values pooled from the literature.
“And” joins repeats or separate records; there may be more than shown. Numbers after ± are the reported error.

Compound	assay	system	conditions	fraction unbound
Nc1nnc(-c2cccc(Cl)c2Cl)c(N)n1		mouse brain		0.162
CCCCCCCCCC(=O)N[C@@H](Cc1c[nH]c2ccccc12)C(=O)N[C@H](CC(N)=O)C(=O)N[C@@H](CC(=O)O)C(=O)N[C@@H]1C(=O)NCC(=O)N[C@@H](CCCN)C(=O)N[C@@H](CC(=O)O)C(=O)N[C@H](C)C(=O)N[C@@H](CC(=O)O)C(=O)NCC(=O)N[C@H](CO)C(=O)N[C@@H]([C@H](C)CC(=O)O)C(=O)N[C@@H](CC(=O)c2ccccc2N)C(=O)O[C@@H]1C	rapid equilibrium dialysis	human plasma	1 µM, 2 h, 37 °C	< 0.02
NC/C(=C\F)COc1cccc(Cn2c(=S)[nH]c(=O)c3[nH]cnc32)c1		rat plasma	10 µM, 5 (unit not given)	0.15
O=S(=O)(c1ccc(-c2ccc3nccc(Nc4cnccn4)c3c2)cc1)N1CCOCC1		human plasma		0.016
O=C1C2N=CN3C(NCc4c(F)ccc5c4CCO5)=NC=C(c4cnc(C(F)(F)F)cc4CN1CC(F)F)C23 (stereo not drawn)		rat plasma		< 0.01
CCCCC1=NC2(CCCC2)C(=O)N1Cc1ccc(-c2ccccc2S(=O)(=O)Nc2noc(C)c2C)c(COCC)c1		plasma		0.009
CC#Cc1cncc(-c2ccc3c(c2)[C@@]2(N=C(C)C(N)=N2)[C@]2(CC[C@H](OC)CC2)C3)c1	equilibrium dialysis	mouse plasma	6 h, pH 7.4	0.016
COc1ccc([C@@H]2Sc3ccccc3N(CCN(C)C)C(=O)[C@@H]2OC(C)=O)cc1	rapid equilibrium dialysis	human plasma	2 µM, 6 h, pH 7.4	0.246
CC(O)C(C)n1ncn(-c2ccc(N3CCN(c4ccc(OCC5COC(Cn6cncn6)(c6ccc(Cl)cc6Cl)O5)cc4)CC3)cc2)c1=O (stereo not drawn)	equilibrium dialysis	human liver microsomes 0.025 mg/mL		0.66 ± 0.12
Cc1ccccc1CN1C(=O)C2=C(CCN(Cc3ccccc3)C2)N2CCN=C12	equilibrium dialysis	plasma	3.865 mg/L	0.0412
CCc1nnc(Nc2ccnc3ccc(-c4ccc(S(=O)(=O)N5CCOCC5)cc4)cc23)s1		human plasma		0.018
C[C@@H](O)[C@H](NC(=O)[C@H](Cc1ccc(O)cc1)NC(=O)[C@H](Cc1ccc(O)cc1)NC(=O)[C@H](CO)NC(=O)[C@H](CCCNC(=N)N)NC(=O)[C@H](Cc1c[nH]cn1)NC(=O)[C@@H](N)Cc1c[nH]c2ccccc12)C(=O)N[C@@H](Cc1c[nH]c2ccccc12)C(=O)N[C@@H](CC(N)=O)C(N)=O		human serum albumin		0.16
Cc1ncc(Cl)cc1NCc1ccc(C(=O)N[C@@H](CC2CCCC2)C(=O)NC2CC2)s1	rapid equilibrium dialysis	mouse plasma	1 µM, 4 h	0.0001
CC(C)(CO)c1cc2cc(NC(=O)C3(c4ccc5c(c4)OC(F)(F)O5)CC3)c(F)cc2n1C[C@@H](O)CO	rapid equilibrium dialysis	human, plasma	6 h post-dose	0.006
Cc1cc(=O)n(-c2ccccc2)n1C	equilibrium dialysis	human plasma		0.99
C[C@H]1CN(c2cccc(-c3ccc4ncnc(Nc5ncco5)c4c3)c2)CCO1		human plasma		< 0.0033
C=CC(=O)Nc1cc(Nc2nccc(-c3cn(C)c4ccccc34)n2)c(OCC(F)(F)F)nc1N(C)CCN(C)C	rapid equilibrium dialysis	human plasma	0.1 µg/mL	0.57% and 0.56% and 1.46%
C[C@@H](Oc1cc(-c2cnn(C3CCNCC3)c2)cnc1N)c1c(Cl)ccc(F)c1Cl	equilibrium dialysis	cell medium with 10% FBS		0.83

Compound	assay	system	conditions	fraction unbound
CC(F)(F)CN1Cc2cc(C(F)(F)F)ncc2C2=CN=C(NCc3c(F)ccc4c3CCO4)N3C=NC(C1=O)C23 (stereo not drawn)		human plasma		< 0.01
Clc1ccc(Nc2ncnc3ccc(-c4cccc(N5CCOCC5)c4)cc23)cc1Cl		human plasma		< 0.0005
Cc1cc(Nc2ccc(S(F)(F)(F)(F)F)cc2)n2nc(C(C)(F)F)nc2n1	rapid equilibrium dialysis	CD-1 mouse plasma	24 h	0.025 ± 0.0097
CC(C)(O)c1ccccc1CC[C@@H](SCC1(CC(=O)O)CC1)c1cccc(/C=C/c2ccc3ccc(Cl)cc3n2)c1	rapid equilibrium dialysis	10% human plasma	2 µM, 24 h, pH 7.4	3e-05
N#C[C@@]1(c2ccc3c(N)ncnn23)O[C@H](CO)[C@@H](O)[C@H]1O		monkey plasma	1 µM	0.829
CC(=O)Nc1nnc(N2CCN([C@@H](C)c3ccc4c(c3)OCO4)CC2)s1		rat plasma	1 µM	0.098
c1cc(-c2ccc3ncnc(Nc4ncco4)c3c2)cc(N2CC3CCC(C2)O3)c1		human plasma		< 0.0032
CO[C@H]1/C=C/O[C@@]2(C)Oc3c(C)c(O)c4c(c3C2=O)C2=NC3(CCN(CC(C)C)CC3)NC2=C(NC(=O)/C(C)=C/C=C/[C@H](C)[C@H](O)[C@@H](C)[C@@H](O)[C@@H](C)[C@H](OC(=O)Nc2c(C)nc3ccccn23)[C@@H]1C)C4=O		human plasma		6.55
O=S(=O)(c1ccc(-c2ccc3nccc(Nc4ccc5[nH]nnc5c4)c3c2)cc1)N1CCOCC1		human plasma		0.034
C=CC(=O)Nc1cc(Nc2nccc(Nc3cc(Cl)c(F)cc3C(C)(C)O)n2)c(OC)cc1N1CC[C@@H](N(C)C)C1		rat brain slices		0.0026 ± 0.0007
CC(C)NCC(O)COc1cccc2ccccc12 (stereo not drawn)	rapid equilibrium dialysis	rat plasma	2 µM, 6 h, pH 7.4	0.15
Cc1nc(Nc2ncnc3ccc(-c4cccc(N5CCOCC5)c4)cc23)oc1C		human plasma		0.0007
COc1cc2c3c(n(CCCN4CCOCC4)c(=O)c2cc1OC)-c1cc2c(cc1C3=O)OCO2	equilibrium dialysis	culture medium, 10% FBS	10760 ng/mL, 24 h	0.015
Cc1noc(C)c1Nc1ccnc2ccc(-c3ccc(S(=O)(=O)N4CCOCC4)cc3)cc12		human plasma		0.092
CN1CCN(c2cccc(-c3ccc4ncnc(Nc5ncco5)c4c3)c2)CC1		human plasma		0.062
CCOC(=O)c1ncn2c1CN(C)C(=O)c1cc(F)ccc1-2	ultrafiltration	rat plasma	5 µM, 30 min	0.14
CC(=O)CC(c1ccccc1)c1c(O)c2ccccc2oc1=O (stereo not drawn)	rapid equilibrium dialysis	human plasma	2 µM, 4 h, pH 7.4, 37 °C	0.0207
CCCC[C@@H]1NC(=O)[C@H](Cc2ccc(O)cc2)NC(=O)[C@@H]2CCCN2C(=O)[C@H](CC(=O)O)NC(=O)[C@H](C)NC(=O)[C@H](Cc2ccccc2)NC(=O)[C@@H]2CSCCC(=O)N3CN(CN(C3)C(=O)CCSC[C@@H](C(=O)N[C@@H](C)C(N)=O)NC1=O)C(=O)CCSC[C@H](NC(C)=O)C(=O)N[C@@H](CC(C)(C)C)C(=O)N1CCC[C@H]1C(=O)N[C@@H](CCC(=O)O)C(=O)N[C@H](CCCCNC(=O)CCc1cn(CCOCCOCCOCCOCCOCCOCCOCCOCCOCCOCCNC(=O)c3cc(C(=O)NCCOCCOCCOCCOCCOCCOCCOCCOCCOCCOCCn4cc(CCC(=O)NCCCC[C@H]5NC(=O)[C@H](CCC(=O)O)NC(=O)[C@@H]6CCCN6C(=O)[C@H](CC(C)(C)C)NC(=O)[C@@H](NC(C)=O)CSCCC(=O)N6CN7CN(C6)C(=O)CCSC[C@H](NC(=O)[C@H](Cc6ccc(O)cc6)NC(=O)[C@@H]6CCCN6C5=O)C(=O)N[C@@H](Cc5ccccc5)C(=O)N[C@@H](C)C(=O)N[C@@H](CC(=O)O)C(=O)N5CCC[C@H]5C(=O)N[C@@H](Cc5ccc(O)cc5)C(=O)N[C@@H](CCCC)C(=O)N[C@H](C(=O)N[C@@H](C)C(N)=O)CSCCC7=O)nn4)cc(C(=O)NCCOCCOCCOCCOCCOCCOCCOCCOCCOCCOCCn4cc(CCC(=O)N[C@H]5CSCCC(=O)N6CN7CN(C6)C(=O)CCSC[C@H](NC(=O)[C@@H](CC(=O)O)NC(=O)[C@H](Cc6cccc8ccccc68)NC(=O)[C@@H]6CCCN6C5=O)C(=O)N[C@@H](CCSC)C(=O)N[C@@H](CCCCNC(=N)N)C(=O)N[C@@H](CC(=O)O)C(=O)N[C@@H](Cc5c[nH]c6ccccc56)C(=O)N[C@@H](CO)C(=O)N[C@@H]([C@@H](C)O)C(=O)N5CCC[C@H]5C(=O)N5C[C@H](O)C[C@H]5C(=O)N[C@@H](Cc5c[nH]c6ccccc56)C(=O)N[C@H](C(N)=O)CSCCC7=O)nn4)c3)nn1)C(=O)N1CCC[C@H]1C(=O)N[C@@H](Cc1ccc(O)cc1)C(=O)N2	ultracentrifugation	rat plasma		0.18
